{"data": "Measured values collected from several papers", "note": "Protocols differ between the studies behind these lines. ± marks the error that the study gave."}
{"Structure (SMILES)": "CC[C@H](C)[C@@H]1NC(=O)[C@H](CCCCN)NC(=O)[C@H](CCCCN)NC(=O)[C@H](Cc2ccc(O)cc2)NC(=O)[C@H](CC(C)C)NC(=O)[C@@H]2CCCN2C(=O)[C@H](C)NC(=O)CNC(=O)CNC(=O)[C@H](CO)NC(=O)CNC(=O)CNC(=O)[C@H](CO)NC(=O)[C@H](CCC(=O)O)NC(=O)[C@H](CC(C)C)NC(=O)[C@H](CC(C)C)NC(=O)[C@H](CCCCN)NC(=O)[C@H](CCCCN)NC(=O)[C@H]([C@@H](C)CC)NC(=O)[C@H]([C@@H](C)CC)NC(=O)[C@H](CCCCN)NC(=O)[C@H](CCCCN)NC(=O)[C@H](Cc2ccc(O)cc2)NC(=O)[C@H](CC(C)C)NC(=O)[C@@H]2CCCN2C(=O)[C@H](C)NC(=O)CNC(=O)[C@@H](NC(=O)CN)CSSC[C@@H](C(=O)N[C@@H](CCC(=O)O)C(=O)N[C@@H](CO)C(=O)O)NC(=O)[C@H](CC(C)C)NC(=O)[C@H](CCCCN)NC(=O)[C@H](CCCCN)NC(=O)[C@H]([C@@H](C)CC)NC1=O", "system": "25% human serum", "conditions": "50 µM, 24 h", "scale": "baseline: 0 h control", "endpoint": "remaining intact peptide", "value": "66.1 ± 5%"}
{"Structure (SMILES)": "CC(C)[C@@H]1NC(=O)CNC(=O)[C@H](CC(N)=O)NC(=O)[C@H](CCCNC(=N)N)NC(=O)[C@H](Cc2ccc(O)cc2)NC(=O)[C@H](C(C)C)NC(=O)[C@@H](NC(=O)[C@@H](NC(=O)[C@H](CC(N)=O)NC(=O)[C@H](Cc2c[nH]c3ccccc23)NC(=O)[C@H](C)NC(=O)[C@H](Cc2ccccc2)NC(=O)CNC(=O)[C@H](CCCCN)NC(=O)[C@H](Cc2ccccc2)NC(=O)[C@H](Cc2ccccc2)NC(=O)[C@H](CCCCN)NC(=O)OCC2c3ccccc3-c3ccccc32)C(C)C)CSSC[C@@H](C(=O)N[C@@H](Cc2c[nH]cn2)C(=O)N[C@@H](CCCNC(=N)N)C(=O)N[C@@H](CCCNC(=N)N)C(=O)N[C@@H](C)C(=O)N[C@@H](CC(N)=O)C(N)=O)NC(=O)[C@H](C(C)C)NC(=O)[C@H](CCCNC(=N)N)NC1=O", "system": "trypsin 1 % w/v", "conditions": "2560 µM, 6 h", "endpoint": "remaining peptide", "value": "39.8%"}
{"Structure (SMILES)": "CC(C)C[C@@H](N)C(=O)NCC(=O)N[C@H](C)C(=O)N[C@H](CO)C(=O)N[C@H](Cc1c[nH]c2ccccc12)C(=O)N[C@H](Cc1c[nH]cn1)C(=O)N[C@H](CCCNC(=N)N)C(=O)N1CCC[C@@H]1C(=O)N[C@H](CC(=O)O)C(=O)N[C@H](CCCCN)C(=O)N[C@H](CS)C(=O)N[C@H](CS)C(=O)N[C@H](CC(C)C)C(=O)NCC(=O)N[C@H](Cc1ccc(O)cc1)C(=O)N[C@H](CCC(N)=O)C(=O)N[C@H](CCCCN)C(=O)N[C@H](CCCNC(=N)N)C(=O)N1CCC[C@@H]1C(=O)N[C@H](CC(C)C)C(=O)N1CCC[C@@H]1C(N)=O", "assay": "RP-HPLC", "system": "cell culture medium", "conditions": "48 h", "endpoint": "remaining intact compound", "value": "~77%"}
{"Structure (SMILES)": "CC[C@H](C)[C@H](NC(=O)[C@H](Cc1c[nH]c2ccccc12)NC(=O)[C@H](CCCNC(=O)c1ccc2c(c1)C1(OC2=O)c2ccc(O)cc2Oc2cc(O)ccc21)NC(=O)CNC(=O)[C@H]1CCCN1C(=O)[C@@H](NC(=O)[C@H](CCCNC(=N)N)NC(=O)[C@@H](NC(=O)[C@H](Cc1c[nH]c2ccccc12)NC(=O)[C@H](CCCN)NC(C)=O)C(C)C)C(C)C)C(=O)N[C@@H](CCCNC(=N)N)C(=O)N[C@@H](CCC(N)=O)C(N)=O", "assay": "capillary electrophoresis", "system": "OPM-2 cell lysate", "conditions": "10 µM, 180 min, pH 7.6, 37 °C", "endpoint": "remaining intact peptide", "value": "80%"}
{"Structure (SMILES)": "CC[C@H](C)[C@@H]1NC(=O)[C@@H]2CSSC[C@H](NC(=O)[C@H](Cc3ccccc3)NC(=O)[C@@H]3CSSC[C@H](NC1=O)C(=O)N[C@@H](CC(C)C)C(=O)N[C@@H](C)C(=O)NCCCC[C@@H](NC(=O)[C@@H](Cc1ccccc1)NC(=O)[C@@H](CC(C)C)NC(=O)[C@@H]1CCCN1C(=O)[C@@H](CC(C)C)NC(=O)[C@@H](Cc1ccccc1)NC(=O)[C@@H](CCC(=O)O)NC(=O)[C@@H](C)NC(=O)[C@@H](Cc1ccccc1)NC(=O)[C@H](N)C(C)C)C(=O)N3)C(=O)N[C@@H]([C@@H](C)O)C(=O)N[C@@H](CCCNC(=N)N)C(=O)N[C@@H](CCSC)C(=O)N[C@@H](CO)C(=O)N1CCC[C@H]1C(=O)N1CCC[C@H]1C(=O)N[C@@H](CCC(N)=O)C(=O)N2", "system": "pronase digestion", "conditions": "48 h, pH 8.0, 25 °C, added: 1 M guanidine HCl", "endpoint": "remaining intact peptide", "value": "85%"}
{"Structure (SMILES)": "CC[C@H](C)[C@@H]1NC(=O)[C@H](CCCCN)NC(=O)[C@H](CCCNC(=N)N)NC(=O)[C@H](Cc2ccc(O)cc2)NC(=O)[C@H](CC(C)C)NC(=O)[C@@H]2CCCN2C(=O)[C@H](C)NC(=O)CNC(=O)CNC(=O)[C@H](CO)NC(=O)CNC(=O)CNC(=O)[C@H](CO)NC(=O)[C@H](CCC(=O)O)NC(=O)[C@H](CC(C)C)NC(=O)[C@H](CC(C)C)NC(=O)[C@H](CCCCN)NC(=O)[C@H](CCCCN)NC(=O)[C@H]([C@@H](C)CC)NC(=O)[C@H]([C@@H](C)CC)NC(=O)[C@H](CCCCN)NC(=O)[C@H](CCCNC(=N)N)NC(=O)[C@H](Cc2ccc(O)cc2)NC(=O)[C@H](CC(C)C)NC(=O)[C@@H]2CCCN2C(=O)CNC(=O)CNC(=O)[C@@H](NC(=O)CN)CSSC[C@@H](C(N)=O)NC(=O)[C@H](CC(C)C)NC(=O)[C@H](CCCCN)NC(=O)[C@H](CCCCN)NC(=O)[C@H]([C@@H](C)CC)NC1=O", "system": "25% human serum", "conditions": "50 µM, 24 h", "scale": "baseline: 0 h control", "endpoint": "remaining intact peptide", "value": "0%"}
{"Structure (SMILES)": "C[C@@H]1NC(=O)[C@H](CC(N)=O)N2C[C@H](Cc3c[nH]c4ccccc34)NC(=O)[C@H](CSCC2=O)NC(=O)[C@H](CCCNC(=N)N)NC(=O)[C@@H](Cc2ccccc2)NC(=O)[C@H](Cc2c[nH]cn2)NC(=O)[C@@H](NC(=O)[C@@H](N)Cc2ccc(O)cc2)CSSC[C@@H](C(=O)N[C@@H](Cc2ccc(O)cc2)C(N)=O)NC(=O)[C@H](Cc2ccccc2)NC1=O", "assay": "LC-MS", "system": "rat serum", "conditions": "10 µM, 6 h, 37 °C", "endpoint": "remaining compound", "value": "~40%"}
{"Structure (SMILES)": "O=C(NCCCCCn1ccc2ccc(F)cc21)Oc1cccc(F)c1", "system": "porcine plasma", "conditions": "20 µM, 0.5 h, 37 °C", "endpoint": "remaining parent compound", "value": "10 ± 3%"}
{"Structure (SMILES)": "CC[C@H](C)[C@@H]1NC(=O)[C@H](CCCNC(=N)N)NC(=O)[C@H](CCCCN)NC(=O)[C@H](Cc2ccc(O)cc2)NC(=O)[C@H](CC(C)C)NC(=O)[C@@H]2CCCN2C(=O)[C@H](C)NC(=O)CNC(=O)CNC(=O)[C@H](CO)NC(=O)CNC(=O)CNC(=O)[C@H](CO)NC(=O)[C@H](CCC(=O)O)NC(=O)[C@H](CC(C)C)NC(=O)[C@H](CC(C)C)NC(=O)[C@H](CCCCN)NC(=O)[C@H](CCCCN)NC(=O)[C@H]([C@@H](C)CC)NC(=O)[C@H]([C@@H](C)CC)NC(=O)[C@H](CCCNC(=N)N)NC(=O)[C@H](CCCCN)NC(=O)[C@H](Cc2ccc(O)cc2)NC(=O)[C@H](CC(C)C)NC(=O)[C@@H]2CCCN2C(=O)CNC(=O)CNC(=O)[C@@H](NC(=O)CN)CSSC[C@@H](C(N)=O)NC(=O)[C@H](CC(C)C)NC(=O)[C@H](CCCCN)NC(=O)[C@H](CCCCN)NC(=O)[C@H]([C@@H](C)CC)NC1=O", "system": "25% human serum", "conditions": "50 µM, 24 h", "scale": "baseline: 0 h control", "endpoint": "remaining intact peptide", "value": "3.6 ± 2.3%"}
{"Structure (SMILES)": "CSCC[C@H](NC(=O)CNC(=O)[C@H](CC(=O)O)NC(=O)[C@@H](NC(=O)[C@@H](NC(=O)[C@@H](NC(=O)CNC(=O)[C@H](CCC(=O)O)NC(=O)[C@H](CCSC)NC(=O)[C@H](CC(=O)O)NC(=O)[C@H](C)NC(=O)[C@H](C)NC(=O)[C@@H](NC(=O)[C@H](CO)NC(=O)[C@@H](N)CC(C)C)[C@@H](C)O)C(C)C)C(C)C)[C@@H](C)O)C(=O)N[C@@H](C)C(=O)N[C@@H](CO)C(=O)NCC(=O)N[C@@H](CC(C)C)C(=O)N[C@@H](CC(=O)O)C(=O)N[C@@H](CCCCN)C(=O)N[C@@H](CC(=O)O)C(=O)N[C@@H](Cc1ccc(O)cc1)C(=O)N[C@@H](CC(C)C)C(=O)N[C@@H](CCCCN)C(=O)N1CCC[C@H]1C(=O)N[C@@H](CC(=O)O)C(=O)N[C@@H](CC(=O)O)C(=O)O", "assay": "LC-MS/MS", "system": "human serum", "conditions": "10 µg/mL, 24 h, 37 °C", "endpoint": "remaining compound", "value": "59%"}
{"note": "Repeated from above:"}
{"Structure (SMILES)": "CC(C)[C@@H]1NC(=O)CNC(=O)[C@H](CC(N)=O)NC(=O)[C@H](CCCNC(=N)N)NC(=O)[C@H](Cc2ccc(O)cc2)NC(=O)[C@H](C(C)C)NC(=O)[C@@H](NC(=O)[C@@H](NC(=O)[C@H](CC(N)=O)NC(=O)[C@H](Cc2c[nH]c3ccccc23)NC(=O)[C@H](C)NC(=O)[C@H](Cc2ccccc2)NC(=O)CNC(=O)[C@H](CCCCN)NC(=O)[C@H](Cc2ccccc2)NC(=O)[C@H](Cc2ccccc2)NC(=O)[C@H](CCCCN)NC(=O)OCC2c3ccccc3-c3ccccc32)C(C)C)CSSC[C@@H](C(=O)N[C@@H](Cc2c[nH]cn2)C(=O)N[C@@H](CCCNC(=N)N)C(=O)N[C@@H](CCCNC(=N)N)C(=O)N[C@@H](C)C(=O)N[C@@H](CC(N)=O)C(N)=O)NC(=O)[C@H](C(C)C)NC(=O)[C@H](CCCNC(=N)N)NC1=O", "system": "trypsin 1 % w/v", "conditions": "2560 µM, 6 h", "endpoint": "remaining peptide", "value": "39.8%"}
